Results gathered from unrelated publications.
Each numbered part is a random draw from the data of one study; scales do not carry over between parts. Positions count from the first letter of the parent shown.

Set 1 — method: protein-binding microarray; form: double-stranded DNA, one strand shown; medium: in vitro; tested at: 2200 nM top; notes: 60-bp whole probe; added: salmon DNA 0.4 mg/ml; relative to: random background probes; direction: higher = stronger binding; constant ends, left off below: GCCTAGCAC … GTCTTGATTCGCTTGACGCTGCTG
Target: Interferon regulatory factor 7, full length, phosphomimetic (IRF7, Homo sapiens, UniProt Q92985, residues 1-503, S471D/S472D/S475D/S476D/S477D/S483D/S484D/S487D)
Target sequence (chain): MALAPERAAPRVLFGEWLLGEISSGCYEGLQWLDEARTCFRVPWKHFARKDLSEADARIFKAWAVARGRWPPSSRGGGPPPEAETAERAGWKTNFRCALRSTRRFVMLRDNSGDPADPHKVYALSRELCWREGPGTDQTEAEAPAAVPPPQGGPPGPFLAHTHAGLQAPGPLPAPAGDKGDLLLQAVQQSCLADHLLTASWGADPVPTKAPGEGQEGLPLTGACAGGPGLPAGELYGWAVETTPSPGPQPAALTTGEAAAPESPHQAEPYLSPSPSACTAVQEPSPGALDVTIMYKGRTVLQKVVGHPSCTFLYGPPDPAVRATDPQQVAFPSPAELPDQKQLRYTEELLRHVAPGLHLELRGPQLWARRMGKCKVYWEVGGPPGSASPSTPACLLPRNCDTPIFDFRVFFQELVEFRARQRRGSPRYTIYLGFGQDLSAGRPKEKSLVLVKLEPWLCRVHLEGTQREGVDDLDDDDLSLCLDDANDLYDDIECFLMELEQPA
`GACGGTATCGGACTGGTGACGTGCTAG`: “fitted relative affinity” -0.156 z-score.
`TCAGCTTCCTCTCTGCCACTGTGCTAG`: “fitted relative affinity” 1.55 z-score.
`GACTGTATCCTACTGCTGACGTGCTAG`: “fitted relative affinity” 0.983 z-score.
Under “fitted relative affinity”, `TTAGGTATCGACTTTCCGTTAGTGCTA` is recorded as 2.25 z-score.
Under “fitted relative affinity”, `GACGGTATCCTACTGCTGATGTGCTAG` is recorded as 0.48 z-score.

Set 2 — target: CCNB2, cyclin fold, Cln2 fusion (human); method: yeast growth competition, sequencing; medium: yeast; notes: weak parent motif; relative to: not given; direction: higher = stronger binding
Starting sequence: PKN2 docking peptide (human); VSAVQKLDFSDTM
Under “normalised enrichment score”, `QSAVQKLDFSDTM [V1Q]` is recorded as 0.362.
`VSSVQKLDFSDTM [A3S]`: “normalised enrichment score” -0.246.
`VSAVQKLQFSDTM [D8Q]` — result for “normalised enrichment score”: -0.224.
For `VSAHQKLDFSDTM [V4H]`, “normalised enrichment score” read -0.0365.

Set 3 — method: RNA Bind-n-Seq; form: RNA; medium: in vitro; tested at: 200 nM; notes: whole 134-nt RNA, ends assumed; added: 150 mM KCl; relative to: input library; direction: higher = stronger binding
Target: Ras GTPase-activating protein-binding protein 1, full length (G3BP1, Homo sapiens, UniProt Q13283)
UniProt Q13283, sequence (whole entry, looked up): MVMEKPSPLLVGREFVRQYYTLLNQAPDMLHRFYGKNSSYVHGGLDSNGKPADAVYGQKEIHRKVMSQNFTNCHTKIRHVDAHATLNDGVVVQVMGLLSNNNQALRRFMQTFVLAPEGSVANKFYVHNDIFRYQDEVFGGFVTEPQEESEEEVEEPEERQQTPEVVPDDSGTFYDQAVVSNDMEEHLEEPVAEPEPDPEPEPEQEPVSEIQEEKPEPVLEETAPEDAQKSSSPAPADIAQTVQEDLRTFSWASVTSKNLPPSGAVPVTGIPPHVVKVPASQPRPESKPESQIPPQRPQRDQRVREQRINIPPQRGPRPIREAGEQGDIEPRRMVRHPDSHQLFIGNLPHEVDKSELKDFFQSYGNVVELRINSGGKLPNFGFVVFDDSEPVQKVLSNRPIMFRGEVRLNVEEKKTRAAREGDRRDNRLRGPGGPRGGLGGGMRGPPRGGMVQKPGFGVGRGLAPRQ
Constant ends, left off below: GGGAGUUCUACAGUCCGACGAUC … UGGAAUUCUCGGGUGUCAAGG
`GCAGGAAGUAAAAACAAAUGGAAAUGCUUCGGAUAGUGGCAGGGGUGGGGGUUGCUAAGGAAAGGGUGGGAUGGGAGUGGGUGAAGAGUU` has a log2 enrichment of 0.929.
`UCCUGUGCUACACAUCGUAUGUACCGAAUCGGGGUUUUUUGGGUUUUUUGGUUUUUUGGAAAGUAUUAUGUUACGCCGUUCGGAUCUGCA` has a log2 enrichment of -0.439.
For `UAACUUUAGAGGAGGAUCUGAUGGAUAUGGCAGUGGACGUGGAUUUUGGGAUGGCUAUAAUGGGUAUGGAGGAGGACCUGGAGGUGGCAA`, the log2 enrichment was 0.338.
`AAGUCCUGUGCUACACAUCGUAUGUACCGAAUCGGGGUUUGGGUUUGGGGUUUGGGAAAGUAUUAUGUUACGCCGUUCGGAUCUGCACUU` has a log2 enrichment of 0.269.
For `CAAGUCCUGUGCUACACAUCGUAUGUACCGAAUCGGUUUGGAAAGGUUUUUUUGGAAAGUAUUAUGUUACGCCGUUCGGAUCUGCACUUC`, the log2 enrichment was -1.04.

Other studies, line by line
For `PhoQ, residues 284 288 289 292 302 303 ALAMYF`, the fold induction was 1.94 (PhoP, residues 12 14 15 18 19 NMSFL (Escherichia coli, UniProt P23836); Sort-seq, refers to: YFP reporter; E. coli; PhoQ-PhoP variant library, added: 10 µM Mg2+; relative to: high Mg2+ state, higher = stronger signaling).

Some of these lines once more (set 2):
`VSSVQKLDFSDTM [A3S]`: “normalised enrichment score” -0.246.
`VSAVQKLQFSDTM [D8Q]` — result for “normalised enrichment score”: -0.224.
